Measurements pooled from the literature.
Lines come from different studies, so protocols differ.
Route: intravenous

SMILES | species | sample | dose | setting | Vd
COc1cc(NC(C)=O)c2c(c1O)-c1c(OC)c(OC)cc3c1C(C2)N(C)CC3 (stereo not shown) | male Wistar rat | plasma | 100 mg/kg | – | 8.06 L/kg
Cc1ccc(OCC(=O)N(Cc2cccs2)c2ccn[nH]2)cc1 | female Sprague-Dawley rat | plasma | 1 mg/kg | single dose | 2.44 L/kg
CSCOC1C(=O)C2(C)C(OCSC)CC3OCC3(OC(C)=O)C2C(OC(=O)c2ccccc2)C2(O)CC(OC(=O)C(O)C(C=C(C)C)NC(=O)OC(C)(C)C)C(C)=C1C2(C)C (stereo not shown) | female Sprague-Dawley rat | plasma | 2 mg/kg | – | 68.1 L/kg
COc1ccc(COc2c(OC)ccc3c2C[C@@H](C(=O)O)N(c2nc4ccc(F)cc4o2)C3)cn1 | male Sprague-Dawley rat | plasma | 1 mg/kg | – | 0.57 L/kg
COC(=O)c1ccc2c(c1)NC(=O)/C2=C(\Nc1ccc2c(c1)CCN2C(=O)CN1CCOCC1)c1ccccc1 | Sprague-Dawley rat | plasma | 2 mg/kg | – | 1.75 L/kg
COc1ccc2c(c1OCc1ccccc1)C[C@@H](C(=O)O)N(c1nc3ccc(F)cc3o1)C2 | male Sprague-Dawley rat | plasma | 1 mg/kg | – | 0.24 L/kg
CC12CC3CC(C)(C1)CC(NC(=O)Nc1ccc(C(=O)N4CCC[C@H](C(N)=O)C4)cc1F)(C3)C2 | Sprague-Dawley rat | plasma | 10 mg/kg | – | 3.68 L
COc1ccc(S(=O)(=O)N2CCc3ccccc3C2)cc1N1CCN(C(=O)c2ccc(F)cc2C(F)(F)F)CC1 | rat | plasma | 10 mg/kg | single dose | 4.6 L/kg
C[Si]1(C)CNC(=O)c2ccccc21 | rat | plasma | 1 mg/kg | single dose | 2.8 L/kg
NC(COc1ccccc1C(F)(F)F)c1ccccc1 (stereo not shown) | male Sprague-Dawley rat | serum | 5 mg/kg | – | 42.5 L/kg
Cc1cc(N2CCC(C#N)(C3(C)CC3)C2=O)cc(C(=O)NCc2cc(F)cc(-c3cnn(C)c3)c2)n1 (racemic) | male Sprague-Dawley rat | plasma | 0.9 mg/kg | – | 2 L/kg
O=C(c1ccccc1)c1cc(O)c(-c2cc(Cl)cc(Cl)c2)c(O)c1 | male Sprague-Dawley rat | plasma | 5 mg/kg | single dose | 14.9 L/kg
Cc1cc(/C=C2\CN(C(C)C)C/C(=C\c3cc(C)c(O)c(C)c3)C2=O)cc(C)c1O | female Sprague-Dawley rat | plasma | 20 mg/kg | – | 118 L/kg

Some of these lines once more:
SMILES | species | sample | dose | setting | Vd
COc1ccc2c(c1OCc1ccccc1)C[C@@H](C(=O)O)N(c1nc3ccc(F)cc3o1)C2 | male Sprague-Dawley rat | plasma | 1 mg/kg | – | 0.24 L/kg
CC12CC3CC(C)(C1)CC(NC(=O)Nc1ccc(C(=O)N4CCC[C@H](C(N)=O)C4)cc1F)(C3)C2 | Sprague-Dawley rat | plasma | 10 mg/kg | – | 3.68 L
